Results collected from several papers.
Every numbered part comes from another study and shows a few of its results, in no order. Changes are numbered by the printed parent chain.

Series 1 — target: CREB3L1, bZIP domain (human); technique: DHFR protein complementation; matrix: yeast; baseline: wild-type JUN-FOS pair; direction: higher = stronger binding
Setting: single substitutions, most at no-binding floor
Starting sequence: JUN, bZIP domain (human); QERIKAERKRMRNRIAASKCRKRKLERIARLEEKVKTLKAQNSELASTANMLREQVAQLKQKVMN; partner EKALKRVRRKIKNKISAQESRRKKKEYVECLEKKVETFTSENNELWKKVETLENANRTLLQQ
Change	binding fitness [natural log]
T48L	-1.3
A40S	-1.42
A46H	-1.53
K36S	-1.48
L52G	-1.51
A46N	-1.16
T48K	-1.26
I28R	-1.46
L52C	-1.5
A49T	-1.51
Q41E	-1.38
M51V	-1.43
R53W	-1.48
Q41W	-1.55
R53F	-1.39
R30M	-1.39
L38P	-1.51

Series 2 — target: CCND3, cyclin fold, Cln2 fusion (human); technique: yeast growth competition, sequencing; matrix: yeast; setting: weak parent motif; baseline: not given; direction: higher = stronger binding
Starting sequence: WEE1 docking peptide (human); HKTFRKLRLFDTP; partner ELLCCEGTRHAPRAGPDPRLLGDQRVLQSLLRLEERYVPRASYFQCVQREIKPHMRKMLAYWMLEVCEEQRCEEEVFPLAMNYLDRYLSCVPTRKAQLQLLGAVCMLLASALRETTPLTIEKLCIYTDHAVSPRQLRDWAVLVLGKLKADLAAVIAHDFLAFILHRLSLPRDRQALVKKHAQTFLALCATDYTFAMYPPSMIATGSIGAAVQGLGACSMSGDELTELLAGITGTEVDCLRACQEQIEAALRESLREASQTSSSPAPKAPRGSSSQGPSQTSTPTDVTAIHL
Change	normalised enrichment score
L7S	0.119
R8G	0.0716
F4T	0.131
K6A	0.0434
R5M	0.0746
T3Q	0.0432
T3H	0.204
P13I	0.0214
H1S	0.266
L9G	0.115
F4S	0.0781
P13N	0.214
H1Q	0.0694
K6G	0.11
T3A	0.0976
K6M	0.061
L7D	-0.0347
L9Y	0.123
F4M	0.199
H1P	0.135
F4Q	0.0947

Series 3 — technique: Sort-seq; item: YFP reporter; matrix: E. coli; setting: PhoQ-PhoP variant library; added: 10 µM Mg2+; baseline: high Mg2+ state; direction: higher = stronger signaling
Substance: PhoQ, residues 284 288 289 292 302 303 TLSLKA
target	fold induction
PhoP, residues 12 14 15 18 19 STHWV (Escherichia coli, UniProt P23836)	13.5
PhoP, residues 12 14 15 18 19 QYCSL (Escherichia coli, UniProt P23836)	3.21
PhoP, residues 12 14 15 18 19 SHWTV (Escherichia coli, UniProt P23836)	18

Series 4 — technique: DHFR PCA, deep sequencing; matrix: yeast; added: (+)-ABA 0.11 µM; baseline: wild-type fitted maximum; direction: higher = stronger binding
Target: ABI1, truncated, D143A, DHFR fusion (Arabidopsis thaliana)
Setting: methotrexate growth selection, single substitutions
Starting sequence: PYL1, truncated, DHFR fusion (Arabidopsis thaliana); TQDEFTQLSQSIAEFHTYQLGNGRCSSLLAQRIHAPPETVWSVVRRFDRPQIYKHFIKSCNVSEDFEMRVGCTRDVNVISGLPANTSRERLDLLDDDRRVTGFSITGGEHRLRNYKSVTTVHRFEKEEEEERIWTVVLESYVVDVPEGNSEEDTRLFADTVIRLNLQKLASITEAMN; partner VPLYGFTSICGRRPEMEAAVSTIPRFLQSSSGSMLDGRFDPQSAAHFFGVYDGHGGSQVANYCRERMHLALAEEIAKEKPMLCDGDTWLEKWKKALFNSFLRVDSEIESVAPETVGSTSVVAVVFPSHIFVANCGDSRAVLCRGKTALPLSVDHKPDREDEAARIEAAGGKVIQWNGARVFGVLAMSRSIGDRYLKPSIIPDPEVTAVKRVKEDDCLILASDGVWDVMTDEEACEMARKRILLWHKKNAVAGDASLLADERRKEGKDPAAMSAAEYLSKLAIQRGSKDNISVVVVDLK
Change	relative binding score [%]
A30S	36.2
V142S	20.1
S140E	8.43
P50L	0.133
G108V	-7.15
V145E	7.82
L94S	0.189
N61G	1.03

Repeated from above (series 1):
Change	binding fitness [natural log]
Q41E	-1.38
M51V	-1.43
R53W	-1.48
Q41W	-1.55
R53F	-1.39
